Results pooled from the literature.
Each numbered part is a random draw from the data of one study; scales do not carry over between parts. Changes are numbered by the printed parent chain.

Sample 1
Target: Interferon regulatory factor 5, full length, phosphomimetic (IRF5, Homo sapiens, UniProt Q13568-2, residues 1-514, K96S/S451D/S453D/S456D/S462D)
Method: protein-binding microarray
Form: double-stranded DNA, one strand shown
Sample: in vitro
Concentration: 250 nM
Notes: 60-bp whole probe
Together with: salmon DNA 0.4 mg/ml
Relative to: random background probes
Reading: higher = stronger binding
Shared flanks, not repeated: GCCTAGCAC … GTCTTGATTCGCTTGACGCTGCTG
The log fluorescence of `TTAGGTATCGACTTTCAGTTAGTGCTA` is reported as 6.18 z-score.
`GACGGTTTCATTCTCCTGACGTGCTAG` gave a log fluorescence of 2.54 z-score.
With `TTCGGACTGGACTTTCGGTTAGTGCTA` the log fluorescence was 9.73 z-score.
With `TAAGATCTCAGACTGGATTAGTGCTAG` the log fluorescence was -0.407 z-score.
For `ACGAGTTTCCATTTTCTGAAGTGCTAG`, the log fluorescence was 2.1 z-score.
The log fluorescence of `TTAGGACTGGGGATTCGGTTAGTGCTA` is reported as -0.234 z-score.
With `GACGATCTCAGTCTCGAGACGTGCTAG` the log fluorescence was 0.12 z-score.
For `GACGGTACCGGGACTGGGGACGTGCTA`, the log fluorescence was -0.302 z-score.
`TCTACTTCTCTTTTTGCTTTGTGCTAG` gave a log fluorescence of 1.44 z-score.
`AGGAAGACATCAAAGAGAGCGTGCTAG` has a log fluorescence of -0.0511 z-score.
The log fluorescence of `GACGGTTTCGGTCTCGGGATGTGCTAG` is reported as 9.67 z-score.
With `TCTTTTTGCACTCTCTACATGTGCTAG` the log fluorescence was 0.967 z-score.
The log fluorescence of `TTAGGTTTCCCTCTCCTTTAGTGCTAG` is reported as 1.04 z-score.
For `TTAGGTCTCGGTCTCGGTTCGTGCTAG`, the log fluorescence was 0.582 z-score.
The log fluorescence of `GACGAACTGGGGTATCAAGACGTGCTA` is reported as -0.473 z-score.
`CTTGCCCACTTCTGTGACAGGTGCTAG` gave a log fluorescence of -0.666 z-score.
The log fluorescence of `TATGGTATTTTTTTGTAATCGTGCTAG` is reported as 0.776 z-score.
`TCAGTTTTCCTTATTGCACTGTGCTAG` has a log fluorescence of 1.63 z-score.
The log fluorescence of `CCTGTAATCCCAGCTACTCAGTGCTAG` is reported as -0.16 z-score.
`GACGATCTCGGGACTGGAGACGTGCTA` has a log fluorescence of -0.374 z-score.
For `GACGGTTTCCTTCTCCGGACGTGCTAG`, the log fluorescence was 0.717 z-score.
`CTTTTTTTCTTTTATTAGTGGTGCTAG` gave a log fluorescence of 1.71 z-score.
For `TCCAGGGCGGTGGGTGGCCCGTGCTAG`, the log fluorescence was -0.955 z-score.
`TGAGGTATCGGGTATCGGTTAGTGCTA` gave a log fluorescence of 5.58 z-score.
`GACGGACTGGGTTTCGGGATGTGCTAG` gave a log fluorescence of 2.79 z-score.

Sample 2
Target: Prothrombin, mature alpha-thrombin (F2, Homo sapiens, UniProt P00734)
Method: aptamer microarray, sandwich
Form: DNA with 2'F-ANA
Sample: in vitro
Concentration: 200 nM
Notes: whole 15-mer aptamer, many near background
Together with: Cy3 exosite-II aptamer, 400 nM
Reading: higher = stronger binding
Strand: GGTTGGTGTGGTTGG
For `2'F-ANA at 2 3 7 10 11 13 14`, “mean fluorescence intensity” read 255 a.u.
`2'F-ANA at 1 3 4 5 6 8 9 10 13` — result for “mean fluorescence intensity”: 65.3 a.u.
For `2'F-ANA at 3 4 5 6 7 8 10 12 13 14`, “mean fluorescence intensity” read 49.2 a.u.
`2'F-ANA at 2 3 7 11` — result for “mean fluorescence intensity”: 883 a.u.
`2'F-ANA at 5 6 7 10 12`: “mean fluorescence intensity” 52.5 a.u.
`2'F-ANA at 1 3 6 7 10 13 15`: “mean fluorescence intensity” 74.6 a.u.
For `2'F-ANA at 1 3 4 6 7 8 9 10 12`, “mean fluorescence intensity” read 88.5 a.u.
For `2'F-ANA at 1 6 7 9 10 11 14 15`, “mean fluorescence intensity” read 50.3 a.u.
`2'F-ANA at 1 3 5 7 9 13 14`: “mean fluorescence intensity” 50 a.u.
Under “mean fluorescence intensity”, `2'F-ANA at 1 2 3 5 6 7 8 9 11 15` is recorded as 59.2 a.u.
For `2'F-ANA at 2 3 4 5 6 9 13`, “mean fluorescence intensity” read 54.4 a.u.
`2'F-ANA at 1 2 5 6 7 8 10 11 12 14 15` — result for “mean fluorescence intensity”: 56 a.u.
`2'F-ANA at 3 4 5 6 8 9 10 14 15` — result for “mean fluorescence intensity”: 48.7 a.u.
Under “mean fluorescence intensity”, `2'F-ANA at 1 2 5 12 13 15` is recorded as 77.2 a.u.
`2'F-ANA at 1 2 4 5 8 9 11 13 15`: “mean fluorescence intensity” 49.2 a.u.
`2'F-ANA at 1 2 3 6 7 11 12 15` — result for “mean fluorescence intensity”: 262 a.u.
Under “mean fluorescence intensity”, `2'F-ANA at 1 8 9 11 13 15` is recorded as 165 a.u.
`2'F-ANA at 2 6 8 9` — result for “mean fluorescence intensity”: 370 a.u.
`2'F-ANA at 2 8 12 14 15` — result for “mean fluorescence intensity”: 202 a.u.
`2'F-ANA at 3 6 9 10 11 13` — result for “mean fluorescence intensity”: 431 a.u.
Under “mean fluorescence intensity”, `2'F-ANA at 1 5 6 7 9 10 14 15` is recorded as 50.8 a.u.
`2'F-ANA at 1 2 3 4 8 11 12 15` — result for “mean fluorescence intensity”: 365 a.u.

Sample 3
Target: ABI1, truncated, D143A, DHFR fusion (Arabidopsis thaliana)
Method: DHFR PCA, deep sequencing
Sample: yeast
Notes: methotrexate growth selection, single substitutions
Together with: (+)-ABA 2500 µM
Relative to: wild-type fitted maximum
Reading: higher = stronger binding
Parent: PYL1, truncated, DHFR fusion (Arabidopsis thaliana); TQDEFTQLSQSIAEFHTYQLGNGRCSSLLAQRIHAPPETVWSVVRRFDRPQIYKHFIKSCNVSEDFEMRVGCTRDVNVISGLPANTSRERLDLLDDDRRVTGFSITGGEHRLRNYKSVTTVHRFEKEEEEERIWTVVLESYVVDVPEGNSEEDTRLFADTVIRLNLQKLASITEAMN; partner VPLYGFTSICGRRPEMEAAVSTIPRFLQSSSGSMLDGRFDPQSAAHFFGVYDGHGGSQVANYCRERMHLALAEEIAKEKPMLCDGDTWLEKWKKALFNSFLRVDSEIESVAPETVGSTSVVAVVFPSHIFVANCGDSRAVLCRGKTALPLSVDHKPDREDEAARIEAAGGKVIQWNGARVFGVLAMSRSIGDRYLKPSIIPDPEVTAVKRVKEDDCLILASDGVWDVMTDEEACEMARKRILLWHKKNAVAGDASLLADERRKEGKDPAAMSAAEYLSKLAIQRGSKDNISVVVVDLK
`E4F`: “relative binding score” 101%.
`G107M` — result for “relative binding score”: 89.6%.
Under “relative binding score”, `E130A` is recorded as 105%.
Under “relative binding score”, `K168Q` is recorded as 96.9%.
`F56G` — result for “relative binding score”: 53.3%.
For `F15K`, “relative binding score” read 78.9%.
`H55A` — result for “relative binding score”: 95.6%.
`E152R`: “relative binding score” 92.3%.
`L169D`: “relative binding score” -1.67%.
For `Y141E`, “relative binding score” read 11.9%.
Under “relative binding score”, `T101I` is recorded as 103%.
`I12F` — result for “relative binding score”: 88.5%.
`E130F`: “relative binding score” 101%.
Under “relative binding score”, `S87P` is recorded as 18.5%.
For `G21R`, “relative binding score” read 99.3%.
Under “relative binding score”, `L169E` is recorded as -4.16%.
`A30I`: “relative binding score” 95.4%.
For `L112S`, “relative binding score” read 9.36%.
For `D92N`, “relative binding score” read 86.3%.
Under “relative binding score”, `S26A` is recorded as 94.6%.
`D96V` — result for “relative binding score”: 81.9%.
`A158L` — result for “relative binding score”: 99.2%.
`E109V` — result for “relative binding score”: 96%.
For `W41E`, “relative binding score” read 11.4%.
For `E38A`, “relative binding score” read 94.2%.

Sample 4
Target: Ras GTPase-activating protein-binding protein 1, full length (G3BP1, Homo sapiens, UniProt Q13283)
Sequence of UniProt Q13283 (whole entry, looked up): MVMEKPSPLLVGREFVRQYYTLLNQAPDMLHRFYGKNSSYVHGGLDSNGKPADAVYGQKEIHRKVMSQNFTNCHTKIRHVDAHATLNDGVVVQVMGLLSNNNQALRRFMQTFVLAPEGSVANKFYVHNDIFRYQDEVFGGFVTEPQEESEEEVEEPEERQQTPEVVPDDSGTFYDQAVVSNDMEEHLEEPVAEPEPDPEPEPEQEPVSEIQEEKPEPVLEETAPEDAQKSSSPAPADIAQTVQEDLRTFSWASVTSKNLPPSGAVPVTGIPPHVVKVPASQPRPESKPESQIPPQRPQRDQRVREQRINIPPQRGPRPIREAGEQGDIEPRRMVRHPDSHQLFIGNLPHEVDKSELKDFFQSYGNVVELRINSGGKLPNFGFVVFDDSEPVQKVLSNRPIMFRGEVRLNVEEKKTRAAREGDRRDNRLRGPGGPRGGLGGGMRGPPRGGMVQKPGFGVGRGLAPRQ
Method: RNA Bind-n-Seq
Form: RNA
Sample: in vitro
Concentration: 200 nM
Notes: whole 134-nt RNA, ends assumed
Together with: 150 mM LiCl
Relative to: input library
Reading: higher = stronger binding
Library: 7-deaza-guanosine replaces G
With `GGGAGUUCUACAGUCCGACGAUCUGGGAGGUGGAUUUUGUUUAUUUUUUUAGCUCAUUUCCAGGGGUGGGAAUUUUUUUUUAAUAUGUGUCAUGAAUAAAGUUGUUGUUGAAAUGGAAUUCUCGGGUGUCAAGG` the log2 enrichment was 0.111.
The log2 enrichment of `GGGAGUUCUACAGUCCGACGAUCAAGUCCUGUGCUACACAUCGUAUGUACCGAAUCGGAAAAGGGAAAAGGGAAAAGGGGAAAGUAUUAUGUUACGCCGUUCGGAUCUGCACUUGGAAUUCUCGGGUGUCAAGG` is reported as 0.325.
`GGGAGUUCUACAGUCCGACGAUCCCUGUGCUACACAUCGUAUGUACCGAAUCGGGGAAAAAGGGGAAAAAAAGGGGAAAGGGGAAAGUAUUAUGUUACGCCGUUCGGAUCUGCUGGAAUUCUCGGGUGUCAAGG` has a log2 enrichment of 0.828.
The log2 enrichment of `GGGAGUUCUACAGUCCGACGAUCCUGUGCUACACAUCGUAUGUACCGAAUCGGGGUUUUUGGGGAAAAAAAGGGGAAAAAGGGGAAAGUAUUAUGUUACGCCGUUCGGAUCUGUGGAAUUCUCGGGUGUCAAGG` is reported as -0.232.
`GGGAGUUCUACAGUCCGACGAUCACCAUGCAGGUGGGCAUCUUUGGGAAGUGGGGCAAGGGGGGGAUAGGGAGGGGGGUAACACUUUGGGAACAGGUGGUCCCAGGUAGUUUCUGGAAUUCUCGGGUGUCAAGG` has a log2 enrichment of 0.17.
`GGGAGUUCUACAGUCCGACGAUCCCUGUGCUACACAUCGUAUGUACCGAAUCGGGAAAAAAGGGGAAAAAAGGGAAAAAAGGGAAAGUAUUAUGUUACGCCGUUCGGAUCUGCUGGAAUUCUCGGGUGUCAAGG` has a log2 enrichment of 0.0313.
For `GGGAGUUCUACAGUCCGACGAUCUUUCACUUCCAGCCAGCUGUGAAGAAGGUGAGCUUGCCUUCCAUCUUCCCCCCUAUCCGCCGCGUAUCUCCGUCGUCUGCAAGCGCGUGAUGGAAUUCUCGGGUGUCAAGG`, the log2 enrichment was 1.08.
For `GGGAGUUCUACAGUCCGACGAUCUUGGGUUCAAUAUACGGAGAGUGCCCUGUGCCAAAGCCACGAGUUGAUCGUCCAAGAAAAGUUCCUGUGAUACAAGAGGAGAGGGCAAUGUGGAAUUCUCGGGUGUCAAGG`, the log2 enrichment was -1.48.
With `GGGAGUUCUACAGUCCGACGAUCCCUGUGCUACACAUCGUAUGUACCGAAUCGGAAAAAAGGGGAAAAAAGGGGAAAAAAGGGGAAAGUAUUAUGUUACGCCGUUCGGAUCUGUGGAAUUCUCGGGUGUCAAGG` the log2 enrichment was 0.538.
For `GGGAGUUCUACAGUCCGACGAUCCCUCAAGUCCUGUGCUACACAUCGUAUGUACCGAAUCGGAAGGAAGGGAAGGGAAAGUAUUAUGUUACGCCGUUCGGAUCUGCACUUCCAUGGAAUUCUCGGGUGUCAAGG`, the log2 enrichment was -0.0529.
The log2 enrichment of `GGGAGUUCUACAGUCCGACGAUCACCAUGCAGGUGGGCAUCUUUGGGAUGUGGGGCAAGGGGGGGAUAGGGAGGGGGGUAACACUUUGGGAACAGGUGGUCCCAGGUCGUUUCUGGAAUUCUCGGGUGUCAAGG` is reported as 0.226.

Other studies, line by line
The fold induction of `PhoQ, residues 284 288 289 292 302 303 GNNTDL` is reported as 4.61 (PhoP, residues 12 14 15 18 19 MHTVL (Escherichia coli, UniProt P23836); Sort-seq, item: YFP reporter; E. coli; PhoQ-PhoP variant library, together with: 10 µM Mg2+; relative to: high Mg2+ state, higher = stronger signaling).

Some of these lines once more (other studies, line by line):
The fold induction of `PhoQ, residues 284 288 289 292 302 303 GNNTDL` is reported as 4.61 (PhoP, residues 12 14 15 18 19 MHTVL (Escherichia coli, UniProt P23836); Sort-seq, item: YFP reporter; E. coli; PhoQ-PhoP variant library, together with: 10 µM Mg2+; relative to: high Mg2+ state, higher = stronger signaling).
